Published values gathered from unrelated publications.
Numbers after ± are the reported error.

SMILES	organism	test	system	setting	EC50 [nM]
CC(=O)Oc1ccc(OC(C)=O)c2c1CC1=C(C2)C(C)(C)CCC1	Leishmania infantum	parasite growth		72 h, promastigote	15900
CCCCSc1cccc(O)c(=O)c1O	human alphaherpesvirus 1	viral replication, plaque reduction	Vero		1010 ± 320
CC1(CCCCCCCCCCCCOCCCOP(=O)(O)CO[C@H](CO)Cn2ccc(N)nc2=O)COC1	human gammaherpesvirus 4	qPCR	Akata	3 days	3810 ± 3040
Nc1nc2c(ncn2COCCOC(=O)CCC(=O)OC[C@H](N)C(=O)O)c(=O)[nH]1	human alphaherpesvirus 1	viral cytopathic effect, CPE inhibition			43500
C#Cc1cn([C@@H]2O[C@H](CO)C[C@H]2O)c2ncnc(N)c12	Trypanosoma equiperdum	parasite growth, resazurin		72 h	3
Nc1ccn(C[C@@H](CO)OCP(=O)(O)OCCCS(=O)(=O)CCCCCCCCCCCCCC2CCC2)c(=O)n1	human alphaherpesvirus 1	cytopathic effect	HFF, E-377		20 ± 10
Nc1ncnc2c1ccn2[C@H]1C[C@H](O)[C@@H](CO)O1	Trypanosoma equiperdum	parasite growth, resazurin		72 h	17000
O=c1c(O)c(SCc2ccccc2)ccc(SCc2ccccc2)c1O	human alphaherpesvirus 1	viral replication, plaque reduction	Vero		80 ± 20
Nc1ccn(C[C@@H](CO)OCP(=O)(O)OCCCS(=O)(=O)CCCCCCCCCCCCC2CCC2)c(=O)n1	human alphaherpesvirus 1	cytopathic effect	HFF, E-377		10 ± 10
Nc1ncnc2c1c(Cl)cn2[C@@H]1O[C@H](CO)C[C@H]1O	Trypanosoma equiperdum	parasite growth, resazurin		72 h	0.6
C[C@H](N)C(=O)OCCOCn1cnc2c(=O)[nH]c(N)nc21	human alphaherpesvirus 1	viral cytopathic effect, CPE inhibition			6600
C=Cc1cn([C@@H]2O[C@H](CO)C[C@H]2O)c2ncnc(N)c12	Trypanosoma equiperdum	parasite growth, resazurin		72 h	11
CCNC1=CC(=O)c2cc3c(cc2C1=O)CCCC3(C)C	Leishmania infantum		intracellular amastigotes, ex vivo mouse splenic explants	72 h	33800 ± 5200
CC1(CCCCCCCCCCOCCCOP(=O)(O)CO[C@H](CO)Cn2ccc(N)nc2=O)COC1	human alphaherpesvirus 1	cytopathic effect	HFF, E-377		3180 ± 3780
CC(C)CCCc1ccc2c(c1)C(=O)C(Br)=C(Br)C2=O	Leishmania infantum	parasite growth		72 h, promastigote	11700
Nc1ncnc2c1c(Br)cn2[C@H]1C[C@H](O)[C@@H](CO)O1	Trypanosoma equiperdum	parasite growth, resazurin		72 h	67
COc1ccc(S(=O)(=O)NCc2c[nH]nc2-c2cccs2)cc1	Eimeria tenella	intracellular growth	MDBK, Penn State		540
Nc1ccn(C[C@@H](CO)OCP(=O)(O)OCCCS(=O)(=O)CCCCCCCCCCC2CCC2)c(=O)n1	human alphaherpesvirus 1	cytopathic effect	HFF, E-377		70 ± 40
CCNC1=C(Cl)C(=O)c2cc3c(cc2C1=O)CCCC3(C)C	Leishmania infantum	parasite growth		72 h, promastigote	12500
CC1(CCCCCCCCCCCCCCOCCCOP(=O)(O)CO[C@H](CO)Cn2ccc(N)nc2=O)COC1	human gammaherpesvirus 4	qPCR	Akata	3 days	5170 ± 7320
CCCCCCSc1ccc(SCCCCCC)c(O)c(=O)c1O	human alphaherpesvirus 1	viral replication, plaque reduction	Vero		80
CCOC(=O)[C@@H](C)NP(=O)(CO[C@H](CF)Cn1cnc(N)nc1=O)N[C@H](C)C(=O)OCC	human adenovirus 2	cytopathic effect			> 100000
CC1CCC2(C(=O)OCc3ccccc3)CCC3(C)C(=CCC4C5(C)CCC(OC6OC(CO)C(OC7OC(C)C(O)C(O)C7O)C(O)C6OC6OC(C)C(O)C(O)C6O)C(C)(C)C5CCC43C)C2C1C (stereo not drawn)	PRRSV	viral replication, immunofluorescence	MARC-145, GD-XH	48 h p.i.	5020 ± 370
Nc1ncnc2c1c(-c1ccccn1)cn2[C@@H]1O[C@H](CO)[C@@H](O)[C@H]1O	Trypanosoma equiperdum	parasite growth, resazurin		72 h	61

Repeated from above:
SMILES	organism	test	system	setting	EC50 [nM]
Nc1ccn(C[C@@H](CO)OCP(=O)(O)OCCCS(=O)(=O)CCCCCCCCCCCCCC2CCC2)c(=O)n1	human alphaherpesvirus 1	cytopathic effect	HFF, E-377		20 ± 10
Nc1ncnc2c1ccn2[C@H]1C[C@H](O)[C@@H](CO)O1	Trypanosoma equiperdum	parasite growth, resazurin		72 h	17000
O=c1c(O)c(SCc2ccccc2)ccc(SCc2ccccc2)c1O	human alphaherpesvirus 1	viral replication, plaque reduction	Vero		80 ± 20
